Experimental data collected from several papers.
A part holds a random share of what one study measured. Changes are numbered by the printed parent chain.

Block 1
Target: Ras GTPase-activating protein-binding protein 1, C-terminal RGG region (G3BP1, Homo sapiens, UniProt Q13283)
Sequence of UniProt Q13283 (whole entry, looked up): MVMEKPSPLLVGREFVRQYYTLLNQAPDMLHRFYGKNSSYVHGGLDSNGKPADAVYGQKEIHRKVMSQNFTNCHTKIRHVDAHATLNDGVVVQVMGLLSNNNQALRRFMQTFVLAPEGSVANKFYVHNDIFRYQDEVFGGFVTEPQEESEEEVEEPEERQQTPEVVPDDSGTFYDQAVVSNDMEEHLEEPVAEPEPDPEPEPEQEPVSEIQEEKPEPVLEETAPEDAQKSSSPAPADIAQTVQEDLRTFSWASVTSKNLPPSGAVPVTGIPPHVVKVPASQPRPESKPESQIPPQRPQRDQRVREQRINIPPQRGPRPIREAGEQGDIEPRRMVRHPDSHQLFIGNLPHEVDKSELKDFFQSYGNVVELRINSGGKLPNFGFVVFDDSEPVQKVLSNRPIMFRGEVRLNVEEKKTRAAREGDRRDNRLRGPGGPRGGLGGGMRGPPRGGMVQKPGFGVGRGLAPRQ
Method: RNA Bind-n-Seq
Molecule type: RNA
Matrix: in vitro
Concentration: 1 µM
Notes: whole 134-nt RNA, ends assumed
Together with: 150 mM KCl
Baseline: input library
Reading: higher = stronger binding
All sequences stand within: GGGAGUUCUACAGUCCGACGAUC … UGGAAUUCUCGGGUGUCAAGG
Oligonucleotide | log2 enrichment
UUACGAUUAUAUCACCCGGACACACAUCAUGCUUAAGAUUCAACUGGGAGCAUACCAGGGAUGCUCUCUAACGUAAUCAAGGGAAGGUUC | -1.9
UAACUUUAGAGGAGGAUCGGAUGGAUAUGGCAGUGGACGUGGAUUUGGGGAUGGCUAUAAUGGGUAUGGAGGAGGACCUGGAGGUGGCAA | -1.26
ACCAUGCAGGUGGGCAUCUUUGGGAAGUGGGGCAAGGGGGGGAUAGGGAGGGGGGUAACAUUUUGGGAACAGGUGGUCCCAGGUCGUUUC | 2.14
CCUGUGCUACACAUCGUAUGUACCGAAUCGGAAAAAAAGGAAAAAAAGGAAAAAAAGGGGAAAGUAUUAUGUUACGCCGUUCGGAUCUGC | -1.89
UCAAGUCCUGUGCUACACAUCGUAUGUACCGAAUCGGGAAGGGAAGGGGAAGGGAAAGUAUUAUGUUACGCCGUUCGGAUCUGCACUUCC | 2.54
CCUGUGCUACACAUCGUAUGUACCGAAUCGGGGAAAAAAGGGAAAAAAGGGAAAAAAGGGAAAGUAUUAUGUUACGCCGUUCGGAUCUGC | -1.5
GCAGGAAGUAAAAACAAAUGGAAACGCUUCGGAUAGUGGCAGGGGUGGGGGUUGCUAAGGAAAGGGUGGGAUGGGAGUGGGUAAAGAGUU | 1.8
CAAGUCCUGUGCUACACAUCGUAUGUACCGAAUCGGCCCCGGCCCCGGCCCCGGGAAAGUAUUAUGUUACGCCGUUCGGAUCUGCACUUC | -2.15

Block 2
Target: CCNF, cyclin fold, Cln2 fusion (human)
Method: yeast growth competition, sequencing
Matrix: yeast
Notes: strong parent motif
Baseline: not given
Reading: higher = stronger binding
Starting sequence: viral docking peptide; KKAKRRLFTISDS; partner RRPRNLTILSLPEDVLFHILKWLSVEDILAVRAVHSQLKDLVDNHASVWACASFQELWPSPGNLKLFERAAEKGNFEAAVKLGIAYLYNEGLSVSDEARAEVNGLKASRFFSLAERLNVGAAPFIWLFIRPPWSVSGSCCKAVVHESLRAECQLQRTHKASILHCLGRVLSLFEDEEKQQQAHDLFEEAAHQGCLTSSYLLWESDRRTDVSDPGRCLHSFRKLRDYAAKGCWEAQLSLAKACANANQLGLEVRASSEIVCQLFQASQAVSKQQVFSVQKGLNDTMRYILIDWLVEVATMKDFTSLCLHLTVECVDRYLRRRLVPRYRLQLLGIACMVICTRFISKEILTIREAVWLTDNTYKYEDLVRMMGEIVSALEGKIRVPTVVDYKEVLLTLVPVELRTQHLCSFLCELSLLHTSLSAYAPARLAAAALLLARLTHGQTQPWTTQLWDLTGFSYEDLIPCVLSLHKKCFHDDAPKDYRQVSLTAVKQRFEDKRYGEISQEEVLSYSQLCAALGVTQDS
Variant | normalised enrichment score
KKAKRRLFTIADS [S11A] | 4.84
KAAKRRLFTISDS [K2A] | 4.51
KKAKARAFTISDS [R5A L7A] | 0.812
KKAKRALFTISDS [R6A] | 4.4
KKAKRRLFTASDS [I10A] | 5.43
KKAKRRLLTISDS [F8L] | 1.02
KKAKKRLLTISDS [R5K F8L] | 0.165
KKAARRLFTISDS [K4A] | 3.88
KKAKARLFTISDS [R5A] | 2.52

Block 3
Target: UDP-N-acetylglucosamine--peptide N-acetylglucosaminyltransferase 110 kDa subunit (OGT, Homo sapiens, UniProt O15294)
Sequence of UniProt O15294 (whole entry, looked up): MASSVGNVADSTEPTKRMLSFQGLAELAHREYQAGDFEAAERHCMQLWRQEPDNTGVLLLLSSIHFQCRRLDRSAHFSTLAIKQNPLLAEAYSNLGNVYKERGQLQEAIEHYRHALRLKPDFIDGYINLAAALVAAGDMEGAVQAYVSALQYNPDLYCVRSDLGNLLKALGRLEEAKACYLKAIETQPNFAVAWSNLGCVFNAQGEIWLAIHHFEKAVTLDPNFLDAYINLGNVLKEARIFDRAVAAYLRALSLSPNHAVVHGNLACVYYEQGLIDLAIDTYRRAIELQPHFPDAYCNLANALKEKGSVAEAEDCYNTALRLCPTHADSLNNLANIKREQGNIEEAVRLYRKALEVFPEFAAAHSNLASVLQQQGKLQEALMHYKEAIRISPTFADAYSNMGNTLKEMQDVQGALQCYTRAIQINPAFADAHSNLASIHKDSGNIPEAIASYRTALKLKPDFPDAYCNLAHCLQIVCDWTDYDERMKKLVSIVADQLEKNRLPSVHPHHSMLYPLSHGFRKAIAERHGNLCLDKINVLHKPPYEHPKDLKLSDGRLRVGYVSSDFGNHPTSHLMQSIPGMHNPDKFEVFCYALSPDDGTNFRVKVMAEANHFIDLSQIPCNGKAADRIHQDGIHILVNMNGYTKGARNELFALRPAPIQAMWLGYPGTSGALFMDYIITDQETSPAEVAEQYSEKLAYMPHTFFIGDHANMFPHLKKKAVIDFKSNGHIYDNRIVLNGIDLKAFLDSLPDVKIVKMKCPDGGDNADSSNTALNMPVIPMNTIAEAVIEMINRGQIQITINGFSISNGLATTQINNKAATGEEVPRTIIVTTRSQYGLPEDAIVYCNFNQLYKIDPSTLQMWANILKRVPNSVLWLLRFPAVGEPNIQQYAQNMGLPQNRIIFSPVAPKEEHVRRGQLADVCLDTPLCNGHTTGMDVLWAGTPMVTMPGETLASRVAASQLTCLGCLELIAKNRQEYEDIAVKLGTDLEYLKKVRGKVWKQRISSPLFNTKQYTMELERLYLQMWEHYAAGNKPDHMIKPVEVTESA
Read-out: binding
Method: phage display NGS
Molecule type: peptide
Notes: panning round 2
Baseline: input library
Molecule | minimum log2 enrichment ratio
SYYRHDHVPQFYNKW | 1.57
STYTPFYPIKFWANR | 2.66
YNIYNPAYQIAYKF | 2.95

Further values, each from its own experiment
SMILES | organism | test system | setting | how to read | measurement | value
C=C1CC[C@H](O)C/C1=C/C=C1\CCC[C@]2(C)[C@@H]([C@H](C)CCCC(C)C)CC[C@@H]12 | Plasmodium berghei | Huh-7, liver stage | 10 µM, 24 h | baseline: control | parasite load | 78.5%

For quick reference, copied from above (block 1):
Oligonucleotide | log2 enrichment
UAACUUUAGAGGAGGAUCGGAUGGAUAUGGCAGUGGACGUGGAUUUGGGGAUGGCUAUAAUGGGUAUGGAGGAGGACCUGGAGGUGGCAA | -1.26
